Experimental data collected from several papers.
Parts stem from different laboratories: compare values within a part only. Changes are numbered by the printed parent chain.

Sample 1
Target: Ras GTPase-activating protein-binding protein 1, full length (G3BP1, Homo sapiens, UniProt Q13283)
Sequence of UniProt Q13283 (whole entry, looked up): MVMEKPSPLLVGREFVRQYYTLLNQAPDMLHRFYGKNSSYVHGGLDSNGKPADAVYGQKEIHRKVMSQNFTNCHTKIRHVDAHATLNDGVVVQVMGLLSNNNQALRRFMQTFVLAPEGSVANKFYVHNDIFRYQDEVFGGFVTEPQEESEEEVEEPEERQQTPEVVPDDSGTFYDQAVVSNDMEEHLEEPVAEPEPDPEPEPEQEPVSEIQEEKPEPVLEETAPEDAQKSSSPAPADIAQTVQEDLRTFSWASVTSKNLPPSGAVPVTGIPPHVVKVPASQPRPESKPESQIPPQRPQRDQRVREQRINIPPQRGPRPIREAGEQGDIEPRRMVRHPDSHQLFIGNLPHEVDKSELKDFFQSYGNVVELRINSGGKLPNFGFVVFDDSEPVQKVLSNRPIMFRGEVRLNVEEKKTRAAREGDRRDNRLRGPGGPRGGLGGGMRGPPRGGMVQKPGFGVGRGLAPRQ
Method: RNA Bind-n-Seq
Form: RNA
Sample: in vitro
Concentration: 200 nM
Setting: whole 134-nt RNA, ends assumed
Together with: 150 mM LiCl
Relative to: input library
Direction: higher = stronger binding
Each molecule: 7-deaza-guanosine replaces G
Strand | log2 enrichment
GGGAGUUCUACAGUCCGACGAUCGUCCUGUGCUACACAUCGUAUGUACCGAAUCGGGAAAAAGGGGAAAAAGGGAAAAAGGAAAGUAUUAUGUUACGCCGUUCGGAUCUGCACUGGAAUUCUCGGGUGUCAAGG | 0.000112
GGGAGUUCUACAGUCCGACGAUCGUCCUGUGCUACACAUCGUAUGUACCGAAUCGGGGCCCCCGGGGCCCCCGGCCCCCGGGAAAGUAUUAUGUUACGCCGUUCGGAUCUGCAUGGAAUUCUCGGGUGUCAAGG | -1.2
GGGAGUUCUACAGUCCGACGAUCUGGGAGGUGGAUUUUGUUUAUUUUUUUAGCUCAUUUCCCGGGGUGGGAAUUUUUUUUUAAUAUGUGUCAUGAAUAAAGUUGUUUUUGAAAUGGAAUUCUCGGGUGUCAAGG | -0.236
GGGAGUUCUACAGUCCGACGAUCAGUCCUGUGCUACACAUCGUAUGUACCGAAUCGGGAAAGGGAAAAAAAGGGAAAGGGAAAGUAUUAUGUUACGCCGUUCGGAUCUGCACUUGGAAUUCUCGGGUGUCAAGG | -0.649
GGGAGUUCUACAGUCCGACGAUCUGUUCACAUUUUAAGGAUGACAAGUCCACUAUAUGUAACACGUAAGAAUGCUAUCCUGGCAGUAGACACAGGGCCAGAAUAAACUGGCAAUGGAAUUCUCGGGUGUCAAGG | -1.6
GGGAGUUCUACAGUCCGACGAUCGCAGGAAGUAAAAACAAAUGGAAAUGCUUCGGAUAGUGGAAAGGGUGGGGGUUGCUAAGGAAAGGGUGGGAUGGGAGUGGGUAAAGAGUUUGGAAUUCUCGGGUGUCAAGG | 0.164
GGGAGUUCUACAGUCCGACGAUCUGGGAGGUGGAUUUUGUUUAUUUUUUUAGCUCAUUUCCAGGGGUGGGAAUUUUUUUUUAAUAUGUGUCAUGAAUAAGGUUGUUUUUGAAAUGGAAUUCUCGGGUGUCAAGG | -0.0591
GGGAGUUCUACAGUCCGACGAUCUCAAGUCCUGUGCUACACAUCGUAUGUACCGAAUCGGCCGGGGCCGGGGCCGGGAAAGUAUUAUGUUACGCCGUUCGGAUCUGCACUUCCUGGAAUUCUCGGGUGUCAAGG | -0.197
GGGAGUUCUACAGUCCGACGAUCUCAAGUCCUGUGCUACACAUCGUAUGUACCGAAUCGGUUUGGUUUUUGGAAAGGAAAGUAUUAUGUUACGCCGUUCGGAUCUGCACUUCCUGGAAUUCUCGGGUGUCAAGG | 0.0534
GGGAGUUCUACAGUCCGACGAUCAGUCCUGUGCUACACAUCGUAUGUACCGAAUCGGGUUUUUGGGAAAAAAAGGGAGGGAAAGUAUUAUGUUACGCCGUUCGGAUCUGCACUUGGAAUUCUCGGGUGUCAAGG | -1.83
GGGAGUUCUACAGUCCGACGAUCAAGUCCUGUGCUACACAUCGUAUGUACCGAAUCGGGGUUUUGGUUUUGGGGUUUUGGAAAGUAUUAUGUUACGCCGUUCGGAUCUGCACUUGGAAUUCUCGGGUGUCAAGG | -0.0715

Sample 2
Target: Histone acetyltransferase KAT6A, winged helix 2, GST fusion (KAT6A, Homo sapiens, UniProt Q92794, residues 85-181)
Method: protein binding microarray
Form: double-stranded DNA, one strand shown
Sample: in vitro
Concentration: not given
Setting: 8-mer, flanks averaged, mean of 2 arrays, mostly near background
Relative to: not given
Direction: higher = stronger binding
Construct (chain): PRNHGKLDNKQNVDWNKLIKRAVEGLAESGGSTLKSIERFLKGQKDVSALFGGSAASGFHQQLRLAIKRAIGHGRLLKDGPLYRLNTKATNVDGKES
Strand | E-score
GGACCCTA | -0.171
TCACCGCA | 0.0203
CACGGGAA | -0.0322
TAACCTAA | -0.0994
ATGGGATG | -0.173
CTTCGAAG | 0.0989
CAGGTAAC | -0.116
CGCGTAAA | -0.0208
CTCTGGTA | -0.0144
GAATAGGA | -0.0668
GGGATGCA | 0.0422
CCTTACAG | -0.0618
CAGGCTCA | 0.124
GAGGTTGA | -0.105
AAGCATAG | 0.0376
CAACCTGC | 0.0848
AAGAAAAA | 0.21
ACTCGGCG | 0.181
CCCGTTGA | 0.0231

Sample 3
Target: ABI1, truncated, D143A, DHFR fusion (Arabidopsis thaliana)
Method: DHFR PCA, deep sequencing
Sample: yeast
Setting: methotrexate growth selection, single substitutions
Together with: (+)-ABA 710 µM
Relative to: wild-type fitted maximum
Direction: higher = stronger binding
Starting sequence: PYL1, truncated, DHFR fusion (Arabidopsis thaliana); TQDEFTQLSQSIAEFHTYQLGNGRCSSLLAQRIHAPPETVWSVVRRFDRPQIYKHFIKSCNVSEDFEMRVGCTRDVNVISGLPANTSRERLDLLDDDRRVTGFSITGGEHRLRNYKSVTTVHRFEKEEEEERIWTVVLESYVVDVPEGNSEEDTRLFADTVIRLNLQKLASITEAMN
Variant | relative binding score [%]
Y18F | 100
T160N | 94.9
L28D | 17.3
S150A | 92.7
R90D | 39.6
V137L | 81.6
T173K | 33.7
R69Y | 94.8
G21H | 105
E139A | 87
G81D | 68.6
Y141L | -0.238
S117Q | 81.1
V78C | 104
V137M | 49.8
T173F | 94.5
R24G | 86.6
G102K | 88.5
N149C | 79.9
I79R | 99.3
E67D | 99.6
S42G | 106
T160Q | 95.2
V43H | 80.1
W41V | -13

Sample 4
Target: RNA binding protein fox-1 homolog 2, RRM domain, GST-SBP tag (RBFOX2, Homo sapiens, UniProt O43251-10, residues 100-194)
Method: RNA Bind-n-Seq
Form: RNA
Sample: in vitro
Concentration: 365 nM
Setting: natural RNA segment, single round, ends assumed
Relative to: no-protein control
Direction: higher = stronger binding
Construct (chain): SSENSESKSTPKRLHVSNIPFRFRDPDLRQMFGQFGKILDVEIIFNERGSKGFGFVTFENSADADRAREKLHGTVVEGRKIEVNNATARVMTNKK
Strand | RBNS enrichment (R)
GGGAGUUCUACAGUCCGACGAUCUGCUCUGCUCGGAGAUGGGGCCCGAGGGGCCCGUUUUGUUCAGAAAUAUAUUUUAAAUGUUUAGUAAUUGGCGUGCAGUUGUCUUUGAUUGAGUAUGUAGGUUUCAUCUGUGGAAUUCUCGGGUGCCAA | 1.37
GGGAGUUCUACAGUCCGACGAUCUUCUAUGCCUUAUUUGAGUUAUCACUUGGAGGGAGGUGGAAGUUGACUCUCUUUUUCACUGUAGAAUAAUGUGGAAAUAACCCUAGAUAAAAAUUCAGUCUGAUAACCUCUGGAAUUCUCGGGUGCCAA | 0.69
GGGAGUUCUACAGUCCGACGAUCCACUUUUGGCCAAGGGUCUUGGGUAACAUCCUGGGUUGAAGUUGCCAAGCUUCAUCUUACUGAAAAAGACUCAGACCCUCAGCAAAGAACAAUGGAGAGAAAGUAGGUGAUGGAAUUCUCGGGUGCCAA | 0.325
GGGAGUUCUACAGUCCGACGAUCAAAGGAGAGAACUGUUAACUAGCAGAAUGCAUUUUAUAGAGCUCUGGCUAACCGCCUCUUAGCCCACGGUUACCCAGUCAUUUGUCUCAGUUAACAUUUAAAGGAGUUUUUGGAAUUCUCGGGUGCCAA | 1.05
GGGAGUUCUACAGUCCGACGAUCGCCAAAGGCCAGCCUCCUGGCCCCAAUACCCAUUUUGGAAGCCCCUGUGGCCGUGUGGAUGUCGGUAACAGUUGUAUAAAAUAAAUUCUAUUUAUCGCUAUUGUACCCAGUGGAAUUCUCGGGUGCCAA | 0.259
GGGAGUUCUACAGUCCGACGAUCGAGAAAUAGCAAGCAUGUCCUGUUGCUUAACGUGUCCUUGUGAAUUGCUUGGUUUUGAUUAAAGUCUGAGCCUGAUACUGAUAUGAUUUUAAAGCGUAGCUGAACCGACUUGGAAUUCUCGGGUGCCAA | 17.9
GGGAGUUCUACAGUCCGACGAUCGUGGGGAAAGGGAGGUCAGAGUACCAGGAACUGCUGAUGUCUGCUCUAAAGUACUUGAGUGGUGCUAAGCUGGGCCUUGCAGAGCUUAGCUUAUAGCAGACCUUGAGCCUUGGAAUUCUCGGGUGCCAA | 1.1
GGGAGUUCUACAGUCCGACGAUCGCACAACAGUUGGCACUUCUGUCUAGAAAAUAAUAAUUGCAAGUUGUAUAACUCAGGCGUCUUUGCAUUUCUGCGAAAGAUCAAGGUCUGCAAGGGAAUUCUUGUGUGCUUGGAAUUCUCGGGUGCCAA | 0.768
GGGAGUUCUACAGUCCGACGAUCCUGUCUCCAUACCUUCCUCUCCUAGUCCUUUUCUUCCACCCAGGCUUCAUAGCUCCGCCCCAGUUGUGGCAGGAGACAUUCGAACAGACGUUUAGACGUUUAGAGUCCUCUGGAAUUCUCGGGUGCCAA | 0.381
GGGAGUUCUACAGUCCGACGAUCCUAUGUUGACAUUUCGGGGAUAUUGUGUUCAAGAAUGAUUCCAAAUUUGAGCCACCAAAAUACACUGCAUUACAGAAAUUGCCACUUGAUUCUGUACUCUUAACCUUUGGUGGAAUUCUCGGGUGCCAA | 3.55
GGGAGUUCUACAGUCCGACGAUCACACCAACAUGUUGGGAAACUUGGCUCGAAUCUCUGUGCCUUCGUCUUUCCCAUGGGGAGGGAUUCUGGUUCCAGGGUCCCUCUGUGUAUUUGCUUUUUUGUUUUGGCUGUGGAAUUCUCGGGUGCCAA | 0.299
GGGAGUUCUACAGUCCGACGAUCCCACAGGGGUGGCUUUGGGAUUGGAUGAUACAGCUUUUGCUUCUGUGUAGUAUACCUGUACAUACUUGUUUCAGGCAGCCUUUCUUUAAUGUUUUCAGUUGGUUUGUAUUUGGAAUUCUCGGGUGCCAA | 0.673

For quick reference, copied from above (sample 1):
Strand | log2 enrichment
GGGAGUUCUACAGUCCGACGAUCGUCCUGUGCUACACAUCGUAUGUACCGAAUCGGGAAAAAGGGGAAAAAGGGAAAAAGGAAAGUAUUAUGUUACGCCGUUCGGAUCUGCACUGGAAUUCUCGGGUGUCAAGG | 0.000112
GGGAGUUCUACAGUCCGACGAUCGUCCUGUGCUACACAUCGUAUGUACCGAAUCGGGGCCCCCGGGGCCCCCGGCCCCCGGGAAAGUAUUAUGUUACGCCGUUCGGAUCUGCAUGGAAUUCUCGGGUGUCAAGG | -1.2
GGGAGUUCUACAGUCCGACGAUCUGGGAGGUGGAUUUUGUUUAUUUUUUUAGCUCAUUUCCCGGGGUGGGAAUUUUUUUUUAAUAUGUGUCAUGAAUAAAGUUGUUUUUGAAAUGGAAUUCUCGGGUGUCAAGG | -0.236
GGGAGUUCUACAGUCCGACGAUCAGUCCUGUGCUACACAUCGUAUGUACCGAAUCGGGAAAGGGAAAAAAAGGGAAAGGGAAAGUAUUAUGUUACGCCGUUCGGAUCUGCACUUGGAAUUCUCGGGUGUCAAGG | -0.649
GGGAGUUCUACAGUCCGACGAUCUGUUCACAUUUUAAGGAUGACAAGUCCACUAUAUGUAACACGUAAGAAUGCUAUCCUGGCAGUAGACACAGGGCCAGAAUAAACUGGCAAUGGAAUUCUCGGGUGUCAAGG | -1.6
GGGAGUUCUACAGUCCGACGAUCGCAGGAAGUAAAAACAAAUGGAAAUGCUUCGGAUAGUGGAAAGGGUGGGGGUUGCUAAGGAAAGGGUGGGAUGGGAGUGGGUAAAGAGUUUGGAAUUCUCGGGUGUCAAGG | 0.164
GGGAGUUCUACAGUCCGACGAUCUGGGAGGUGGAUUUUGUUUAUUUUUUUAGCUCAUUUCCAGGGGUGGGAAUUUUUUUUUAAUAUGUGUCAUGAAUAAGGUUGUUUUUGAAAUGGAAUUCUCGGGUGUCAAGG | -0.0591
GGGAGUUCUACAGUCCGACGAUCUCAAGUCCUGUGCUACACAUCGUAUGUACCGAAUCGGCCGGGGCCGGGGCCGGGAAAGUAUUAUGUUACGCCGUUCGGAUCUGCACUUCCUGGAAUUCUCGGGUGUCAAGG | -0.197
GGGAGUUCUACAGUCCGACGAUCUCAAGUCCUGUGCUACACAUCGUAUGUACCGAAUCGGUUUGGUUUUUGGAAAGGAAAGUAUUAUGUUACGCCGUUCGGAUCUGCACUUCCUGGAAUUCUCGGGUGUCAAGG | 0.0534
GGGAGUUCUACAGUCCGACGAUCAGUCCUGUGCUACACAUCGUAUGUACCGAAUCGGGUUUUUGGGAAAAAAAGGGAGGGAAAGUAUUAUGUUACGCCGUUCGGAUCUGCACUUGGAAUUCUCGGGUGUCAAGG | -1.83
